Measured values of several laboratories.
Protocols differ between the studies behind these lines.
SLC6A4: Sodium-dependent serotonin transporter (SLC6A4, Homo sapiens, UniProt P31645)
Chain of UniProt P31645 (whole entry, unmodified, looked up): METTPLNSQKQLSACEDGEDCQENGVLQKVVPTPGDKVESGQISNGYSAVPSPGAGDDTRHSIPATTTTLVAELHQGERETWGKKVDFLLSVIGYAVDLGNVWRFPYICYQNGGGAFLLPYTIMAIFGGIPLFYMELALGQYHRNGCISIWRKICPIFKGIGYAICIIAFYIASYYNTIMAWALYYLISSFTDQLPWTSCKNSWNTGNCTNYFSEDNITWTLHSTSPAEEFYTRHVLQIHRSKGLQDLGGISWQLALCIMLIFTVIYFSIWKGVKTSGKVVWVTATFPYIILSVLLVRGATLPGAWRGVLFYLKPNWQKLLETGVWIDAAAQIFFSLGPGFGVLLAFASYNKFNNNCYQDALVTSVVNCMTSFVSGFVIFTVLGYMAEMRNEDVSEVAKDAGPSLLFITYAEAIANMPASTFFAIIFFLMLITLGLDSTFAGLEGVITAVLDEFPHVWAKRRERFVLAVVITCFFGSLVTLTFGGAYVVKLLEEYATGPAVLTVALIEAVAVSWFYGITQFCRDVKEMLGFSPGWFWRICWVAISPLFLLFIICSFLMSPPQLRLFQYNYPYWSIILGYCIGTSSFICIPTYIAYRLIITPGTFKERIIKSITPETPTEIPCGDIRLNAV

SMILES	target	test	test system	setting	quantity	value
CN1[C@H]2CC[C@@H]1[C@@H](C(=O)N1CCCC1)[C@@H](c1ccc(I)cc1)C2	SLC6A4	serotonin reuptake, inhibitor	HEK293 transfected with SERT		IC50	> 10 µM
C[C@@H]1NC(C)(C)CO[C@H]1c1cccc(Br)c1	SLC6A4	transporter uptake, inhibitor, radiometric			IC50	0.39 µM
CCCC(C(=O)c1ccc2c(c1)OCO2)N1CCCC1 (stereo not drawn)	SLC6A4	ligand displacement, radioligand		cell membranes	Ki	1.25 µM
CCCN1[C@@H](C)[C@H](c2cccc(Cl)c2)OCC1(C)C	SLC6A4	transporter uptake, inhibitor, radiometric			IC50	2.9 µM
CCNC(C)C(=O)c1ccc(Cl)cc1 (stereo not drawn)	SLC6A4	[3H]5-HT release, releaser	HEK293 expressing target		EC50	0.78 µM
C[C@@H]1NC(C)(C)CO[C@H]1c1cccc(F)c1	SLC6A4	transporter uptake, inhibitor, radiometric			IC50	4.6 µM
CCCNC(C)C(=O)c1ccc2c(c1)OCO2 (stereo not drawn)	SLC6A4	transporter uptake, inhibitor, radiometric			IC50	2.25 µM
CC(N)Cc1cccc(C(F)(F)F)c1 (single isomer, unassigned; (+))	SLC6A4	induced current, oocyte voltage clamp		holding potential -60 mV	EC50	~10 µM
CC(C(=O)c1ccc2c(c1)OCO2)N(C)C (stereo not drawn)	SLC6A4	[3H]5-HT release, releaser	HEK293 expressing target		EC50	> 10 µM
CCC[C@@H]1NC(C)(C)CO[C@H]1c1cccc(Cl)c1	SLC6A4	transporter uptake, inhibitor, radiometric			IC50	0.3 µM
CNC(C)Cc1ccc2c(c1)OCO2 (stereo not drawn)	SLC6A4	transporter uptake, inhibitor, radiometric			IC50	0.118 µM
C=C[C@H]1C[N@@]2CC[C@H]1C[C@@H]2[C@@H](O)c1ccnc2ccccc12	Sodium-dependent serotonin transporter (SLC6A4, Homo sapiens, UniProt P31645, Y95F)	transporter uptake, inhibitor, radiometric			Ki	0.3 µM
